Published values collected from several papers.
Each line is one published result; not all experiments were run side by side.
CNR2: Cannabinoid receptor 2 (CNR2, Homo sapiens, UniProt P34972)
4'-phosphopantetheinyl transferase PptT: 4'-phosphopantetheinyl transferase PptT (Mycobacterium tuberculosis, UniProt O33336)
OPRK1: Kappa-type opioid receptor (OPRK1, Homo sapiens, UniProt P41145)
HTR1E: 5-hydroxytryptamine receptor 1E (HTR1E, Homo sapiens, UniProt P28566)

CC(Cc1ccccc1)NCCC(c1ccccc1)c1ccccc1 (stereo not drawn)
IC50 (Beta-2 adrenergic receptor (ADRB2, Homo sapiens, UniProt P07550); ligand displacement, radioligand): 3490 nM

CO[C@H]1O[C@H](CO)[C@@H](O)[C@H](O)[C@@H]1O
Kd (Concanavalin-A (Canavalia ensiformis, UniProt P02866); binding, ITC): 18000 nM

Cc1nn(C)cc1-c1nc2c(N3CCN(Cc4ccc(Cl)cc4)CC3)c(Cl)cnc2[nH]1
remaining binding (TGF-beta receptor type-1 (TGFBR1, Homo sapiens, UniProt P36897); binding, competition with immobilised ligand; 1 µM): 83%

Nc1ncc(-c2nc(N3CCOCC3)nc(N3CCOCC3)n2)c(C(F)F)n1
remaining binding (Receptor-interacting serine/threonine-protein kinase 1 (RIPK1, Homo sapiens, UniProt Q13546); binding, competition with immobilised ligand; 10 µM): 91%

CCCCCc1cc(O)c2c(c1)OC(C)(C)c1ccc(C)cc1-2
Ki (CNR2; ligand displacement, radioligand; cell membranes): 163 nM

O=c1c2cc(Cl)c(CO)cc2[nH]c(=S)n1Cc1cccnc1
IC50 (4'-phosphopantetheinyl transferase PptT; enzyme activity, inhibitor, FP): 730 nM

Oc1ccc2c3c1O[C@H]1c4oc5ccccc5c4C[C@@]4(O)[C@@H](C2)N(CC2CC2)CC[C@]314
EC50 (Transient receptor potential cation channel subfamily M member 7 (Trpm7, Mus musculus, UniProt Q923J1, F924W); calcium signal, agonist): 57400 nM

O=c1c2cc(Cl)ccc2[nH]c(=S)n1Cc1ccccc1
IC50 (4'-phosphopantetheinyl transferase PptT; enzyme activity, inhibitor, FP): > 100000 nM

Cc1ccc(C(=O)N[C@H]2CC[C@@]3(O)[C@H]4Cc5ccc(O)c6c5[C@@]3(CCN4CC3CC3)[C@H]2O6)s1
Ki (OPRK1; ligand displacement, radioligand; cell membranes): 1.69 nM

N#Cc1cncc(Cn2c(=S)[nH]c3ccc(Cl)cc3c2=O)c1
IC50 (4'-phosphopantetheinyl transferase PptT; enzyme activity, inhibitor, FP): 730 nM

COc1cc(CCNC(C)c2ccccc2O)c(OC)cc1C#N (stereo not drawn)
Ki (5-hydroxytryptamine receptor 2B (HTR2B, Homo sapiens, UniProt P41595); cell-free assay, radioligand): 390 nM

O=c1c2cc(Cl)ccc2oc(=S)n1Cc1cccnc1
IC50 (4'-phosphopantetheinyl transferase PptT; enzyme activity, inhibitor, FP): 13000 nM

O=C(N[C@H]1CC[C@@]2(O)[C@H]3Cc4ccc(O)c5c4[C@@]2(CCN3CC2CC2)[C@H]1O5)c1ccc(C(F)F)s1
Ki (OPRK1; ligand displacement, radioligand; cell membranes): 2.45 nM

O=c1c2cc(Cl)ccc2[nH]c(=S)n1Cc1ccc(-c2ccccc2)nc1
IC50 (4'-phosphopantetheinyl transferase PptT; enzyme activity, inhibitor, FP): 440 nM

C[C@@]12CC[C@H](O)C[C@H]1CC[C@@H]1[C@@H]2CC[C@@]2(C)C(=O)CC[C@@H]12
EC50 (CNR2; cAMP, agonist): 19800 nM

O=c1c2cc(Cl)ccc2[nH]c(=S)n1Cc1ccc(-n2cccn2)nc1
IC50 (4'-phosphopantetheinyl transferase PptT; enzyme activity, inhibitor, FP): 160 nM

COc1ncccc1-c1cnn2ccc(N3CCN(C(=O)OC(C)C)CC3)nc12
remaining binding (Serine/threonine-protein kinase mTOR (MTOR, Homo sapiens, UniProt P42345); binding, competition with immobilised ligand; 1 µM): 100%

CN1CCC(C(=O)c2cccc(NC(=O)c3c(F)cc(F)cc3F)n2)CC1
EC50 (HTR1E; G protein activation, agonist, BRET): 902 nM

CC(Cc1cccc(Cl)c1)NC(C)(C)C (stereo not drawn)
IC50 (Sodium-dependent serotonin transporter (Slc6a4, Rattus norvegicus, UniProt P31652); transporter uptake, inhibitor, radiometric): 5110 nM

CO[C@H]1/C=C/O[C@@]2(C)Oc3c(C)c(O)c4c(O)c(c(/C=N/N5CCN(C6CCCC6)CC5)c(O)c4c3C2=O)NC(=O)/C(C)=C\C=C\[C@H](C)[C@H](O)[C@@H](C)[C@@H](O)[C@@H](C)[C@H](OC(C)=O)[C@@H]1C
Kd (dppA (Mycobacterium tuberculosis, UniProt I6X811); binding, SPR): > 125000 nM

CNC(C)C(=O)c1ccccc1 (racemic)
EC50 (Sodium-dependent dopamine transporter (SLC6A3, Homo sapiens, UniProt Q01959); calcium signal, agonist, fluorescence): 248 nM

[2H]c1c([2H])c([C@]2([2H])CCCN2C(=O)C(C)(C)Oc2ccc3cn[nH]c3c2)c([2H])c([2H])c1C([2H])([2H])[2H]
remaining binding (Cyclin-dependent kinase 15 (CDK15, Homo sapiens, UniProt Q96Q40); binding, competition with immobilised ligand; 1 µM): 72%

O=C(N[C@H]1CC[C@@]2(O)[C@H]3Cc4ccc(O)c5c4[C@@]2(CCN3CC2CC2)[C@H]1O5)c1ccc(Br)s1
Ki (OPRK1; ligand displacement, radioligand; cell membranes): 1.24 nM

NC(=O)c1cncc(Cn2c(=S)[nH]c3ccc(Cl)cc3c2=O)c1
IC50 (4'-phosphopantetheinyl transferase PptT; enzyme activity, inhibitor, FP): 400 nM

COC(=O)[C@H]1[C@@H](OC(=O)c2ccccc2)C[C@@H]2CC[C@H]1N2C
Ki (Sigma non-opioid intracellular receptor 1 (SIGMAR1, Cavia porcellus, UniProt Q60492); ligand displacement, radioligand; cell membranes): 9040 nM

CC[C@@H](CO)NC(=O)[C@@H]1C=C2c3cccc4[nH]cc(c34)C[C@H]2N(C)C1
EC50 (HTR1E; G protein activation, agonist, BRET): 17 nM

Clc1cc(Cl)cc(N2CCNCC2)c1
Ki (Muscarinic acetylcholine receptor M1 (CHRM1, Homo sapiens, UniProt P11229); ligand displacement, radioligand; cell membranes): 6310 nM

Some of these lines once more:
N#Cc1cncc(Cn2c(=S)[nH]c3ccc(Cl)cc3c2=O)c1
IC50 (4'-phosphopantetheinyl transferase PptT; enzyme activity, inhibitor, FP): 730 nM

COc1cc(CCNC(C)c2ccccc2O)c(OC)cc1C#N (stereo not drawn)
Ki (5-hydroxytryptamine receptor 2B (HTR2B, Homo sapiens, UniProt P41595); cell-free assay, radioligand): 390 nM

O=c1c2cc(Cl)ccc2oc(=S)n1Cc1cccnc1
IC50 (4'-phosphopantetheinyl transferase PptT; enzyme activity, inhibitor, FP): 13000 nM
